Assay results pooled from the literature.
Every numbered part comes from another study and shows a few of its results, in no order.

Set 1
Target: RING finger protein unkempt homolog, zinc fingers 1-6, GST-SBP tag (UNK, Homo sapiens, UniProt Q9C0B0, residues 30-357)
Method: RNA Bind-n-Seq
Form: RNA
Matrix: in vitro
Tested at: not given
Setting: RNA with constant flanks, human and mouse sites, ends assumed
Relative to: input RNA pool
Reading: higher = stronger binding
Shared flanks, not repeated: GGGAGUUCUACAGUCCGACGAUC … CAACAGAGGAUUGAGCAUCA
Construct (chain): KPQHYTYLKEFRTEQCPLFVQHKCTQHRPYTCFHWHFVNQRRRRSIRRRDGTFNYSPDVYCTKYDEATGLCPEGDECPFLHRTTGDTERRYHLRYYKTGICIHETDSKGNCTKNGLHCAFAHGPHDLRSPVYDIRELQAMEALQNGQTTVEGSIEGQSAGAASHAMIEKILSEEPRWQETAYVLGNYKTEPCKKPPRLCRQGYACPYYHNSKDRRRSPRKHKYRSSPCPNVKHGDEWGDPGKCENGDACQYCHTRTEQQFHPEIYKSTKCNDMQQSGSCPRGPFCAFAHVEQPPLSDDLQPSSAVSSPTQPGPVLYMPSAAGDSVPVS
| Sequence | bound/input enrichment [ratio] |
| --- | --- |
| UUUCUCCGUUGCAUCUGGUCAUCUCUACGAAAGAUUUCUUCGCAUAAUGAUGCUAUCCGUGCUGAAGAAUACCAAGACUCCUGUGAAAUUCUGGUUCUUGAAGAAUUACUUGUCCCCCAC | 0.267 |
| CUGGAGCAGGGUGGCCGUGGCAGCGUCCUGCAGUUCAUGCCCUUCACCACCGUGUCGGAACUGGUGAAGGUGUCAGCCAUGUCCAGCCCCAAGGUGGUUCUGGCCAUCACGGACCUCAGC | 0.0538 |
| AAAGCGGGAGCCAGGCCUGAGUGUUCCUGUCCCUGUGAGUGGGAAGGUCUUCUGGCUCCCCAUCCCACCUGGCUCCAGAGCCUGCCCUCCACAGCUUGCUGCCAAGCUACUCCCUCCCUC | 0.209 |
| GCUGCAAAUUCCUGUGUAGUGGCAGGCCCAAGGCCUUCCCAGGGGAACCAUAGGUGGUGGUAGGUGGGACAUGUGGCCACUUGUUUUGCUUUAAAUACCUCAGUCCUUAUUCUGACAGGA | 0.0752 |
| AGCGGUUAGAUAAGGUAGUAGAUUCCAUGGAUGCAUUAGAUAAAGUUGUCCAGGAAAGAGAAGAUGCCCUAAGGCUUCUUCAGACUGGUCAAGAAAGAGCUAGACCUGGUGCUUGGAGAA | 3.01 |
| CCAGGCAGAGGAGAUAUGGAACAGAAUGACUCUGACAACCGGAGAAUAAUUCGCUAUCCGGACAGUCAUCAGCUUUUCGUUGGUAACUUGCCUCAUGAUAUUGAUGAAAAUGAACUGAAA | 0.153 |
| CGGUGCAACUUCCGGUCUGCCUACAAGAUGUCUGCGGCCAGUGGUGGCUUCCAACCUCGUGAGCGGCGAUUUUCAGUGCAGGAGCAGGACUGGGAGACUACGCCGCCUAAGAAGCUCCGG | 0.074 |
| CACCGGUCCCCUCACAUCCCGUAUAAGUUGCUGCACCUGGUGUGGACCCACGCGAGGCACCUAGCAGGCUACGAGCAGCAGGACGCCCACGAGUUCCUCAUCGCGGCCCUGGACGUGCUC | 0.115 |

Set 2
Target: Ras GTPase-activating protein-binding protein 1, RRM domain (G3BP1, Homo sapiens, UniProt Q13283)
UniProt Q13283, sequence (whole entry, looked up): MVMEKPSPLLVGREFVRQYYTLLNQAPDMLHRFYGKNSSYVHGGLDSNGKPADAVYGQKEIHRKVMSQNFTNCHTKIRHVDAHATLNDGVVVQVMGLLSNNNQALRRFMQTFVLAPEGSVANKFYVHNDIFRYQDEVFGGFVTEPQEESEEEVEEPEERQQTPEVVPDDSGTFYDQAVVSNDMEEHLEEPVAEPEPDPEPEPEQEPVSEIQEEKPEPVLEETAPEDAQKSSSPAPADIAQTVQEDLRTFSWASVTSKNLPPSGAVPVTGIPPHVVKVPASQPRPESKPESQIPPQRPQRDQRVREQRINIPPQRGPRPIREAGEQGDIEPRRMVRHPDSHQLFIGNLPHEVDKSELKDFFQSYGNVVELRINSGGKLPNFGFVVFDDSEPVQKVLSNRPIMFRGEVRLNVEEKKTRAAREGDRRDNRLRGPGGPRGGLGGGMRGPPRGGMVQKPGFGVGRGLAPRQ
Method: RNA Bind-n-Seq
Form: RNA
Matrix: in vitro
Tested at: 1 µM
Setting: whole 134-nt RNA, ends assumed
Added: 150 mM KCl
Relative to: input library
Reading: higher = stronger binding
Shared flanks, not repeated: GGGAGUUCUACAGUCCGACGAUC … UGGAAUUCUCGGGUGUCAAGG
| Sequence | log2 enrichment |
| --- | --- |
| GCAGGAAGUAAAAACAAAUGGAAAUGCUUCGGAUAGUAGCAGGGGUGGGGGUUGCUAAGGAAAGGGUGGGAUGGGAGUGGGUAAAGAGUU | 0.776 |
| GUCCUGUGCUACACAUCGUAUGUACCGAAUCGGGUUUUUGGGGUUUUUGGGUUUUUGGGAAAGUAUUAUGUUACGCCGUUCGGAUCUGCA | 0.293 |
| UCCUCAAGUCCUGUGCUACACAUCGUAUGUACCGAAUCGGCGGGGCGGCGGAAAGUAUUAUGUUACGCCGUUCGGAUCUGCACUUCCAGC | -0.153 |
| UAACUUUAGAGGAGGAUCUGAUGGAUAUGGCAGUGGACGUGGAUUUGGGGAUGGCUAUAAUGGGUGUGGAGGAGGACCUGGAGGUGGCAA | -0.212 |
| GUCCUGUGCUACACAUCGUAUGUACCGAAUCGGGGAAAAAGGAAAAAGGGAAAAAGGGAAAGUAUUAUGUUACGCCGUUCGGAUCUGCAC | -0.161 |
| CACAGACAACACGCACCCACACAGACACAGAGGGAAGGGAAAGGGAUGGGGACAGGGUGCACAGCAGGGCGGGGUAGGACCCCAGCCCCU | -0.124 |
| UCCUCAAGUCCUGUGCUACACAUCGUAUGUACCGAAUCGGAGGAAAGGAGGAAAGUAUUAUGUUACGCCGUUCGGAUCUGCACUUCCAGC | -0.206 |
| UCAAGUCCUGUGCUACACAUCGUAUGUACCGAAUCGGGAAGGGGAAGGGGAAGGAAAGUAUUAUGUUACGCCGUUCGGAUCUGCACUUCC | -0.157 |
| CACAGAAAACACGCACCCACACAGACACAGAGGGAAGGGGUUGGGAUGGGGACAGGGUGCACAGCAGGGCGGGGUAGGACCCCAGCCCCU | -0.323 |

Set 3
Target: Centromere-binding protein 1, full length, His-tagged (CBF1, Saccharomyces cerevisiae, UniProt P17106, residues 1-351)
UniProt P17106, sequence (whole entry, looked up): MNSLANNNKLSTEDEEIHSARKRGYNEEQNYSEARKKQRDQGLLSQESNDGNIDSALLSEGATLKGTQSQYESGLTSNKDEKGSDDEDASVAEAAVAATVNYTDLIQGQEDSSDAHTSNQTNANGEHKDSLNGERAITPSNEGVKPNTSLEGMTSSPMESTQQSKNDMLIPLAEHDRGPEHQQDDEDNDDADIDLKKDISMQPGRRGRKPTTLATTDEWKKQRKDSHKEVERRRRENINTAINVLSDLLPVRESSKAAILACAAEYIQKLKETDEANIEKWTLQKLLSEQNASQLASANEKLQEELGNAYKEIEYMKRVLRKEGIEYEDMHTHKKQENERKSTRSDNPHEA
Method: competition protein-binding microarray
Form: double-stranded DNA, one strand shown
Matrix: in vitro
Tested at: 2 µM
Setting: whole 60-bp probe, lowest competitor level
Added: Pho4 competitor, 0.05 µM
Reading: higher = stronger binding
Shared flanks, not repeated: … GTCTTGATTCGCTTGACGCTGCTG
| Sequence | fluorescence intensity [a.u.] |
| --- | --- |
| CTTCTGTAAATTTGAGGCGTGGGTGGACGCGCCCCG | 75 |
| GCTGTTGAGTTTGCGGACGTGTCGGAGAGCGCGTAG | 59.6 |
| GTCTTGTCTCATTGTCACGTTACTTTCCCCACTTCA | 778 |
| GACATTGCCCTGAGCATCGTGCAAATGGGGGACACT | 81.4 |
| CTTCTGTAAATTTTTCACGTGTGGTGAAGCGCCCCG | 585 |
| AATATCCTCAACCTACACGTCTTCACCATCGGCACC | 76.8 |
| CTTGCAAAAAGAAAAGGCGTGGCCGTAGTCTTCGCT | 72.6 |
| AAATTACTAAGTTGTATCGTGGGTGACGCCGTATGA | 102 |
| CATTGGCCAGGGACGCATGTGCAGAGGCGGCAGAGT | 79.5 |
| TCGGTCCCCTCATAAAATTATATATAAATGGGTTAG | 78 |
| AAATTACTAAGTTGACGCGTGGGTGACGCCGTATGA | 69.6 |
| TTGCCGCAGAAGAGTCACGTGATGGGCACTCTTACT | 15100 |
| CGTCCTAGTGATTGGCCAGTGGGTGCCATGAGGAAG | 74.1 |
| AGGAGAAAATCCGGCCACGATTTAACGGTTGTTGCT | 68.7 |
| CAGAACCTGCTAAAGCACGTGATGGGAGAAAATCAA | 6390 |
| CCCGCCCAAGCCGACCACGTGCCGCGAGCCCGGCGG | 2040 |
| TGTTCAAGTGCTTTTCACGTGTAGGATTACTTAACC | 863 |
| TGAACCAGTCAATATCACACTTCCAAATGGTTTGAC | 84.7 |
| CTTCTGTAAATTTGAACAGTGGGTGGACGCGCCCCG | 67.3 |

Set 4
Target: Interferon regulatory factor 3, full length, phosphomimetic (IRF3, Homo sapiens, UniProt Q14653, residues 1-427, S386D/S396D/S398D/S402D/T404D/S405D)
UniProt Q14653, sequence (whole entry, unmodified, looked up): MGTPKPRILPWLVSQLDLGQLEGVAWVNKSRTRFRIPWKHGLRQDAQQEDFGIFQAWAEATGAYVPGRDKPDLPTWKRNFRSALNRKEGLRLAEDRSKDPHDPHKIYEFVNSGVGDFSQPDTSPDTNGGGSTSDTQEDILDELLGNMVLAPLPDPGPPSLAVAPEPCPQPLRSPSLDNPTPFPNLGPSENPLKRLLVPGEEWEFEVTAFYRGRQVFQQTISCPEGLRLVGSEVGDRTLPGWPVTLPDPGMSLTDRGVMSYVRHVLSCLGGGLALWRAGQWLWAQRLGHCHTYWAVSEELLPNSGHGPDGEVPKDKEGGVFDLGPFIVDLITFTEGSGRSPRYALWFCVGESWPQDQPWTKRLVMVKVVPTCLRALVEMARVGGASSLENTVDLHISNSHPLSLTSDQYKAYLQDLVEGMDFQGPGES
Method: protein-binding microarray
Form: double-stranded DNA, one strand shown
Matrix: in vitro
Tested at: 2540 nM top
Setting: 60-bp whole probe
Added: salmon DNA 0.4 mg/ml
Relative to: random background probes
Reading: higher = stronger binding
Shared flanks, not repeated: GCCTAGCAC … GTCTTGATTCGCTTGACGCTGCTG
| Sequence | fitted relative affinity [z-score] |
| --- | --- |
| GACGATTTCGGTCTCGGGACGTGCTAG | 4.53 |
| TTAGGACTGGGGTATCGGGTAGTGCTA | -0.625 |
| GACGGACTGGGTTTCAGGACGTGCTAG | 0.193 |
| TCATCTTCATGTTTTTTACTGTGCTAG | 0.908 |
| AAATATTTACCTCTCACGCAGTGCTAG | 0.442 |
| TTAGATTTCGGGACTGGCTTAGTGCTA | 1.09 |
| TTAGGTCTCGGACTGGGTTCGTGCTAG | -0.381 |
| TCAACTTTCTTTTGCTTACTGTGCTAG | 1.33 |
| TTAGGACTGGGTTTCGGTTGGTGCTAG | 2.06 |
| CCCTTATTCTAGCCTCCATTTGTGCTA | 1.64 |
| TTAGGTATCGGGCTCGGTTAGTGCTAG | 0.68 |
| TTAGGTATCATTATCCTTTAGTGCTAG | 3.89 |
| TTTGGTATCCTTTTCCTTTAGTGCTAG | 8.9 |
| TTAGAACTGGGGTTTTGATTAGTGCTA | -0.51 |
| GACGGCTTCGACTATCGGGACGTGCTA | -0.708 |
| GACAATTTCAGACTGGAGACGTGCTAG | 0.61 |
| TTAGGTCTCCTTACCCTTTAGTGCTAG | 1.97 |
| AGAGCCATCAATATCTGCAAGTGCTAG | -0.696 |
| GACGGTTTTCTTATCCTGACGTGCTAG | 3.17 |

Excerpt of the above (set 2):
| Sequence | log2 enrichment |
| --- | --- |
| GCAGGAAGUAAAAACAAAUGGAAAUGCUUCGGAUAGUAGCAGGGGUGGGGGUUGCUAAGGAAAGGGUGGGAUGGGAGUGGGUAAAGAGUU | 0.776 |
| GUCCUGUGCUACACAUCGUAUGUACCGAAUCGGGUUUUUGGGGUUUUUGGGUUUUUGGGAAAGUAUUAUGUUACGCCGUUCGGAUCUGCA | 0.293 |
| UCCUCAAGUCCUGUGCUACACAUCGUAUGUACCGAAUCGGCGGGGCGGCGGAAAGUAUUAUGUUACGCCGUUCGGAUCUGCACUUCCAGC | -0.153 |
